Literature values as cited in several papers.
Numbered parts are unrelated; values within a part may stem from several laboratories. ± marks the error that the study gave.

Sample 1 — read-out: peptide-MHC binding; form: peptide
Target: HLA class I histocompatibility antigen, C alpha chain, allele C*04:01 (Homo sapiens, UniProt P10321)
`FYYNAFHW` has an IC50 of greater than 20 µM.
The IC50 of `LEYFQFVKKLL` is reported as greater than 20 µM.
`FMYEGDTPL` has an IC50 of greater than 5 µM.
The IC50 of `ILNRETLLDFV` is reported as greater than 20 µM.
The IC50 of `RVYAHVRSV` is reported as greater than 5 µM.
With `IVDCLTEMYY` the IC50 was greater than 20 µM.
`FQPQNGQYI` has an IC50 of 20 µM.
`RVRWRNYAL` gave an IC50 of greater than 5 µM.
`YVILVGAAF` gave an IC50 of 20 µM.
With `YTIDLNDAF` the IC50 was greater than 5 µM.
For `HASHYTIPW`, the IC50 was greater than 5 µM.
The IC50 of `VEYHYTFYI` is reported as greater than 5 µM.
For `VPIAWAAA`, the IC50 was greater than 20 µM.

Further values, each from its own experiment
Ar: Androgen receptor (Ar, Rattus norvegicus, UniProt P15207)
Sequence of UniProt P15207 (whole entry, looked up): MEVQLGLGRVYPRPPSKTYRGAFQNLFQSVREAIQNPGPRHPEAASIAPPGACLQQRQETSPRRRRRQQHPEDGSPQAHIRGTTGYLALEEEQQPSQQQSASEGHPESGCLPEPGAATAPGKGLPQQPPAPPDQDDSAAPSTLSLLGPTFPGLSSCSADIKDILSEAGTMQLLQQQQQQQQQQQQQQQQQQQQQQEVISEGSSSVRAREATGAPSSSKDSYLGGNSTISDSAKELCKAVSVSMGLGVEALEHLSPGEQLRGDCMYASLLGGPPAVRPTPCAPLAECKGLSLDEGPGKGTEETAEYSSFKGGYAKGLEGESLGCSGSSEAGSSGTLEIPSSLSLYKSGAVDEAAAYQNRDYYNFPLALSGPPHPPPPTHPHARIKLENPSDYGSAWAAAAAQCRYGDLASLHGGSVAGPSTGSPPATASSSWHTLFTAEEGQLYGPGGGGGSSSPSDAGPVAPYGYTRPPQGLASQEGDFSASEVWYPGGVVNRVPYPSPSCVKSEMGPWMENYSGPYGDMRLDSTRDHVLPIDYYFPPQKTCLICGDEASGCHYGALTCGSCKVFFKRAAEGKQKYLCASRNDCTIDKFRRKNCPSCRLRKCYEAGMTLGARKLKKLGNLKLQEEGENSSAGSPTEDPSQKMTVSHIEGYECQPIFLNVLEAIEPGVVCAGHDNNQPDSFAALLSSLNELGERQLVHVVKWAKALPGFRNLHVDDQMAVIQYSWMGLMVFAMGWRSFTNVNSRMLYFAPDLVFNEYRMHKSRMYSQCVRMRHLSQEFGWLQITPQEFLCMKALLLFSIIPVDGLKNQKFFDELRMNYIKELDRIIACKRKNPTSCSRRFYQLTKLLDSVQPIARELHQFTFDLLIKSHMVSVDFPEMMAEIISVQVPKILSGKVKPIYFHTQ
Under activity class, C[C@]12C=CC3=C4CCC(=O)C=C4CC[C@H]3[C@@H]1CC[C@@H]2O is recorded as “active” (Ar; concentration not given).
CC[C@H](C)CCCCC(=O)N[C@@H](CCN)C(=O)N[C@H](C(=O)N[C@@H](CCN)C(=O)N[C@H]1CCNC(=O)[C@H]([C@@H](C)O)NC(=O)[C@H](CCN)NC(=O)[C@H](CCN)NC(=O)[C@H](CC(C)C)NC(=O)[C@@H](CC(C)C)NC(=O)[C@H](CCN)NC1=O)[C@@H](C)O has a nephrotoxicity incidence of 69% (patients; 5 mg/kg/day).
Under “maximum tolerated dose”, CC1(C)CCC(c2ccc(Cl)cc2)=C(CN2CCN(c3ccc(C(=O)NS(=O)(=O)c4ccc(N[C@H](CCN5CCOCC5)CSc5ccccc5)c(S(=O)(=O)C(F)(F)F)c4)cc3)CC2)C1 is recorded as 325 mg (human; once daily).
The EC50 of CC1(C)NC(=O)C(Cc2ccc(O)cc2)NC(=O)CNC(=O)C(Cc2ccc3ccccc3c2)NC(=O)C(CCCN=C(N)N)NC1=O (centres unmarked) is reported as 2.9 µM (CXCR4 wild type).
O=C(O)C(F)(F)C(F)(F)C(F)(F)C(F)(F)C(F)(F)C(F)(F)C(F)(F)C(F)(F)F gave an IC50 of 55.4 ± 15.5 µM (CYP2C19; inhibitor; Tox21 screening).
With CCCC(CCC)C(=O)O the TD50 was 398 mg/kg (motor impairment; mouse; intraperitoneal).
For O=C(O)c1ccccc1C(c1ccc(O)cc1)c1ccc(O)cc1, “AR binding call” read “inactive” (Ar; validation reference set; concentration not given).
With COc1cc2c(Oc3ccc4[nH]c(C)cc4c3F)ccnc2cc1OCC1(N)CC1 the LD50 was 983 mg/kg (ICR mice; 22 days).
CN1CCN(C2=Nc3ccccc3Oc3ccc(Cl)cc32)CC1 has an AUC of 34 to 429 nM·h (human, plasma; dose not given, range of reported values).
CCN(CC)N=O — result for mutation frequency: “increased” (fingerprint mutation, item: T>A substitution; rat, liver; concentration not given).
The IC50 of FC(F)OC(F)(F)C(F)Cl (centres unmarked) is reported as 59.7 ± 39.8 µM (CYP2C19; inhibitor; Tox21 screening).
Cc1ccnc2c1NC(=O)c1cccnc1N2C1CC1: “IC50 fold change” 0.9 fold (HIV-1 reverse transcriptase V179D; enzyme; relative to: mutant over wild type).
The protective index of NC(=O)O[C@@H](Cn1ncnn1)c1ccccc1Cl is reported as 2 (mouse; i.p., subcutaneous PTZ seizure test).

Repeated from above (sample 1):
The IC50 of `RVYAHVRSV` is reported as greater than 5 µM.
For `HASHYTIPW`, the IC50 was greater than 5 µM.
The IC50 of `ILNRETLLDFV` is reported as greater than 20 µM.
